Measured values collected from several papers.
Each line is one published result; not all experiments were run side by side.
Form: double-stranded DNA, one strand shown
basR 1-222: basR 1-222 (Escherichia coli)
cssR 1-198: cssR 1-198 (Corynebacterium glutamicum)
Aspartate aminotransferase: Aspartate aminotransferase (Streptococcus pneumoniae, UniProt Q8DNN5)
saeR full length assumed: saeR full length assumed (Staphylococcus aureus, UniProt Q2FIT4)
Chain of UniProt Q2FIT4 (whole entry, looked up): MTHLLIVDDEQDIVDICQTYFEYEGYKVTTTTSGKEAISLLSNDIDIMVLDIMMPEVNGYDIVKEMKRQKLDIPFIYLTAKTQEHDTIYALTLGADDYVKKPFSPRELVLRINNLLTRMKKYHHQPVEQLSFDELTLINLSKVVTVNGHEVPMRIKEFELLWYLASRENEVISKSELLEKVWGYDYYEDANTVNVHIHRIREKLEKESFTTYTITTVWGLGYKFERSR
dnaA full length assumed: dnaA full length assumed (Borreliella burgdorferi, UniProt P33768)
Chain of UniProt P33768 (whole entry, looked up): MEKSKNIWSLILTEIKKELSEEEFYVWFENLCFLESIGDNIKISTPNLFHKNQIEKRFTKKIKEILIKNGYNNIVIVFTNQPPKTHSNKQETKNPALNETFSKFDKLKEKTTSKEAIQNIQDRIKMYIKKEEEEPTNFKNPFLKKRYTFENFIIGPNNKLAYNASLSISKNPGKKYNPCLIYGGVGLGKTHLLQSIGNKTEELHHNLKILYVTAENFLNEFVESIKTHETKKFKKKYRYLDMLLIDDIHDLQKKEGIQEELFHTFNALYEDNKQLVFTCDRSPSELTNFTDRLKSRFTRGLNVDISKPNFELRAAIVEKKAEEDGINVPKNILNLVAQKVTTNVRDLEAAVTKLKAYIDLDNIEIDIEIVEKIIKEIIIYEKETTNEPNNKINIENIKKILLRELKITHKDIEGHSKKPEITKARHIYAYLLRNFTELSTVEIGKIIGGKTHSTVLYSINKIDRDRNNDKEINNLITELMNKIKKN
T1: basR 1-222 (Escherichia coli); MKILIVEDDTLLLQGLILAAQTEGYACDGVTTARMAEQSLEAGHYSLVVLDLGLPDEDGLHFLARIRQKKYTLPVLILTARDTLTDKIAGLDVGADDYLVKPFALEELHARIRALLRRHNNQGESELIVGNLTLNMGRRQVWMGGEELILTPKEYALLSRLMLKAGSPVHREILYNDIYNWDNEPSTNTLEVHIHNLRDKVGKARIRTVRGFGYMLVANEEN
T2: cssR 1-198 (Corynebacterium glutamicum); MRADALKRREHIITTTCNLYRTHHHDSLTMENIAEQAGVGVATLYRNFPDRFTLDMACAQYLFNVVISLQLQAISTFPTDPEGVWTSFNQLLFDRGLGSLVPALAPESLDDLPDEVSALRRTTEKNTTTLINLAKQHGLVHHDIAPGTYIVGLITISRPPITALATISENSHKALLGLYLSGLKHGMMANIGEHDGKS
T3: rgg3 1-283 (Streptococcus pyogenes); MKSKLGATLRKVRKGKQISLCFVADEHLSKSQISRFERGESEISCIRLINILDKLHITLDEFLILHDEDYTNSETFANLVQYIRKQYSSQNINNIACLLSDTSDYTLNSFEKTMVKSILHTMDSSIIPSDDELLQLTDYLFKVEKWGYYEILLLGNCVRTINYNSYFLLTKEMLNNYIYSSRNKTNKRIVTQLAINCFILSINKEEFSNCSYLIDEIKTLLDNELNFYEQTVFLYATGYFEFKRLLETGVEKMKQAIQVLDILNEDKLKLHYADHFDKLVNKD
Chain of UniProt Q7DDD9 (whole entry, looked up): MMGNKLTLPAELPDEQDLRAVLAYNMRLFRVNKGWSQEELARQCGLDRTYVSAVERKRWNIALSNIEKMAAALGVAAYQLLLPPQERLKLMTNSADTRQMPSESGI
Chain of UniProt P60386 (whole entry, looked up): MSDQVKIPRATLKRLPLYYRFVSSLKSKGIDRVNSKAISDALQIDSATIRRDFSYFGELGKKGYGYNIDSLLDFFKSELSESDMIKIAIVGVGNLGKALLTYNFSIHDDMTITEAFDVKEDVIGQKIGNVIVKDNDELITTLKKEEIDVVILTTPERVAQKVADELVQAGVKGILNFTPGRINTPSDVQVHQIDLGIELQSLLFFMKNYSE

GCAACCGTTTTCACTTTCCGTGCTTCTCCTAAAGACAGAAGCATCGACTTCGTGTAGGGTTTGCCAGCAAATTTATTTATCAACCGTCTTACAGACGCTTCCATTCTGGTTAGTGGTAGCGATGATGCTATGCATAAAAACCTTGAAGCCTGCGCCTGGCGCGGTCAGGTCGGTGTCACTATGGCAACAAGCCTAAAGGCATAACCCGACAGGGATAAGACGAAAAATCCGAGATTAGTTAACCATATATGAATCCAGTACCCGCGCAACGTGAATATTTCC (dsDNA (Escherichia coli))
binding (T1, basR 1-222 (Escherichia coli); EMSA): binds

CCGAAAAAGGGTGAATGGGGGGAATTTTCAGAGCTGTCACACCCCCGTTTCCTGAGGGGAATACTTAGATTCCACATAGCGGAATTATCTTGAGTCACCTTTCAAAGCCCAATATGTTCGAAGTCACAAACACTTCAAGGGCTAGACGTATGCAGGTGTTGGGGATTGCTTATCTCAAGGGCAATCACACCCTTCATACGCATCTACAACATCCGTAAAGGAGGACTCCAACAA (dsDNA (Corynebacterium glutamicum))
binding (T2, cssR 1-198 (Corynebacterium glutamicum); EMSA): no binding

GATGAAACCCCGCTTTTTTTATTGATCGCACACCTGACAGCTGCCTCTAAAATAGAAGCACCAGAAGTACTGACAGATGTTGCACTGCTGTGTGTAGTAATAAATCAGCCCTAAATGGGTAAAATATAAAACTAATGGATTACATCTGATTTCAATCTAGCCATTAC (dsDNA (Escherichia coli))
binding (T1, basR 1-222 (Escherichia coli); EMSA): binds

TTCTAATTGCCTATGACTTTTTTTAGATAATAAATCTCTCATGAATATCTTTCTCTCTTTATAAATTATCGGATTAAACCTCTTGCAATTATACCACAAAGAATAGGTATAGCATGATATAACGACTTTTCCTAAAATCTTTTATTTCGTATAATAACACTACGGAGACAATATATAAACAATTTTCTTATTTTACCGTCTATTGAGGGCGTGAATACAGAATC (dsDNA)
binding (Aspartate aminotransferase; EMSA): binds

AAATGTTGTCGGTTTGAATGCTGGTGAAGGACGTGTATTGACGCCTCATGAAGTAAAAGTGATGCGTCATTTAGCAGAACATGGGAAATAATTAAATAAAATATGTATTTATCACAAAGTTTGAGAATTTTTTCACAAAATTTTAGGTTTTTAATAACTGTATGCGCTTTCCTGTGATATAATACTTTTGTAAAGAAAAGCATGTGTGGGAGGTATGACCTGTATGTCGAA (dsDNA)
binding (rex 1-211 (Staphylococcus aureus, UniProt P60386); EMSA; added: NAD+): binds

CAAATTCTTTAATTGTTGCTATTATATAATTTTTAAAATTAAAAATATAATCTTTAGACTTGAATTTGATTCTGTATTCACGCCCTCAATAGACGGTAAAATAAGAAAATTGTTTATATATTGTCTCCGTAGTGTTATTATACGAAATAAAAGATTTTAGGAAAAGTCGTTATATCATGCTATACCTATTCTTTGTGGTATAATTGCAAGAGGTTTAATCCG (dsDNA)
binding (Aspartate aminotransferase; hydroxyl radical footprinting): binds

GCGCTGTTTCCCAATCTGTCTTGATTTTATCTCTTTCCTCTTGATGTGTGTGTGTTTGGGTGTGGCTGCCGCCACCCCTTTTTTTTGGCTTTTATGTGAAGTAAAATCCGTAACAGCAAATGCTTAACTTTAACCATTTATCTGGAAGCAAGCGC (dsDNA)
binding (NHTF full length assumed (Neisseria meningitidis, UniProt Q7DDD9); EMSA; 1-3 µM): binds

TACTCAAAAAACATTTACTTAAAAATATAAATTCGATTTAATAATTAATTTAAATTTAGTTAATCAATTTTGCATCTATTTTGTTGTAAGCTATATAAAA (dsDNA)
binding (saeR full length assumed; EMSA): binds

CTAGGGATCCTAAAGGGGTATTAAACGCACTTCTAATAACGATTTTATAGCGCTTCAAAGATATAACACTAATTCATTTTAAATAATAATTAGTTAATGAACGCTTCTGTTAATCTTAGTAAATCAAAACATTGCTACAATTACATCCAACCTTGATTTCGTTATGTCTTCAAGGAAAAACACTTTAAGAATAGGAGCTGCAGCGATGC (dsDNA (Helicobacter pylori); blunt)
binding (mua 1-153 (Helicobacter pylori, UniProt O25538); EMSA; added: NiSO4 0.8 mM): no binding

GTCAATTCATGTAAAATAATTTAATAAAACGTTAATAAGTGGTTAATTAATATTTAATTAATATTTTTATTTAAAATGTATATAGTAAATGTGTATCTAG (dsDNA)
binding (saeR full length assumed; EMSA): binds

ACCAGCATTGACATGGATCGATGGATCGTAGACGCGCCCACCCCAAGGGTTTCGGCGGCACCGGAAATGGTCAAACTTCCAGAGTCACGGAGCAGCAAAATGAGCTGCAATGCAATGTCGACAGAGCTTAGAAATTCTTTCGGGGGTAACCCCTGGGTGGGGGCGACGTTATCCATAATCACTCTTTCCAGATAGCGGAATCCCTTTGATTGTAACTTGGCTCACCTCGATTATGTGTT (dsDNA (Corynebacterium glutamicum))
binding (T2, cssR 1-198 (Corynebacterium glutamicum); EMSA): no binding

CCACACAAGTTTTTGTACTTGACTACATTTAAGCTAAATTAATTGTACTTATTTAAAAAAAAAATTGCTAGCTAAAAATAACATTACAATAAATCTTATTGACATAAATTGATTTTTTTTATATAAGTAAATTATTG (dsDNA)
binding (dnaA full length assumed; competition; 1.4 µM): binds

TTACATTTATTAAGTTATCCTATTTATACAACTTTTGAAATTAACTAATTATTAATTAACTATAAACACTTTATAATATAGACAAAATATAGCTATCTAT (dsDNA)
binding (saeR full length assumed; EMSA): binds

TTTCCCCAAAGTGGATTGTTTTTAAGCGAAAGGTTATCCACCAACGATAATCAGGATATCCATGATCAATGTAAAAAGCAAAGCTTTATTAACTTTTTTCATGACTGTCTCCTTTCTGATTTTCTATTTTGTACTTGTATTATATAATGGATTTAGCAGATTTTAATTTTTTGTTGTGAAAGTGGGAAAAATG (dsDNA)
binding (T3, rgg3 1-283 (Streptococcus pyogenes); EMSA): binds

GATTTATTGTAATGTTATTTTTAGCTAGCAATTTTTTTTTTAAATAAGTACAATTAATTTAGCTTAAATGTAGTC (dsDNA)
binding (dnaA full length assumed; competition; 1.4 µM): binds

GTTTTATGTACTATTATCTTATTTCTAAATATTAACTCTATTGATTATTGGTTTTTATACTTATTTAATTTTATTCAACTTTGACAATTGAATAGAAAGCAA (dsDNA)
binding (saeR full length assumed; EMSA): binds

Excerpt of the above:
GCGCTGTTTCCCAATCTGTCTTGATTTTATCTCTTTCCTCTTGATGTGTGTGTGTTTGGGTGTGGCTGCCGCCACCCCTTTTTTTTGGCTTTTATGTGAAGTAAAATCCGTAACAGCAAATGCTTAACTTTAACCATTTATCTGGAAGCAAGCGC (dsDNA)
binding (NHTF full length assumed (Neisseria meningitidis, UniProt Q7DDD9); EMSA; 1-3 µM): binds
